# Published values from different studies.
# Numbers after ± are the reported error.
Compound,assay,test system,setting,scale,quantity,value
CC(C)[C@H](N)C(=O)N1CCC[C@H]1B(O)O,"refers to: body weight, serum chemistry, blood counts",NSG mice bearing MV4-11,"intraperitoneal, 20 µg, day 23",,tolerability,no effect
CC(C)[C@@H]1NC(=O)CNC(=O)[C@H](CC(N)=O)NC(=O)[C@H](CCCNC(=N)N)NC(=O)[C@H](Cc2ccc(O)cc2)NC(=O)[C@H](C(C)C)NC(=O)[C@@H](NC(=O)[C@@H](NC(=O)[C@H](CC(N)=O)NC(=O)[C@H](Cc2c[nH]c3ccccc23)NC(=O)[C@H](C)NC(=O)[C@H](Cc2ccccc2)NC(=O)CN)C(C)C)CSSC[C@@H](C(=O)N[C@@H](Cc2cnc[nH]2)C(=O)N[C@@H](CCCNC(=N)N)C(=O)N[C@@H](CCCNC(=N)N)C(=O)N[C@@H](C)C(=O)N[C@@H](CC(N)=O)C(N)=O)NC(=O)[C@H](C(C)C)NC(=O)[C@H](CCCNC(=N)N)NC1=O,,"ICR mice, serum","intraperitoneal, 5 mg/kg, day 5",,creatinine,85.5 ± 3.97 µmol/L
COc1cc2c(Oc3ccc4[nH]c(C)cc4c3F)ccnc2cc1OCC1(N)CC1,,paediatric recurrent refractory sarcoma,10 mg,,Headache incidence,25%
COc1ncccc1-c1cnn2ccc(N3CCN(C(=O)OC(C)C)CC3)nc12,,"rat, CCI mechanical allodynia model, plasma","oral, 10 mg/kg, 240 min",,drug concentration,2100 nM
CC(C)C[C@@H]1NC(=O)[C@H](CC(N)=O)NC(=O)[C@H](CCCNC(=N)N)NC(=O)[C@H]([C@@H](C)O)NC(=O)[C@@H]2CSSC[C@@H]3NC(=O)[C@H]([C@@H](C)O)NC(=O)CNC(=O)CNC(=O)[C@H](C(C)C)NC(=O)[C@@H]4CSSC[C@H](NC(=O)[C@H](CCCCN)NC(=O)[C@H](CSSC[C@H](NC(=O)[C@H](C(C)C)NC(=O)[C@@H]5CCCN5C(=O)[C@H](CC(C)C)NC1=O)C(=O)NCC(=O)N[C@@H](CCC(=O)O)C(=O)N[C@@H]([C@@H](C)O)C(=O)N4)NC(=O)CNC(=O)[C@@H]1CCCN1C(=O)[C@H]([C@@H](C)O)NC(=O)[C@H](CC(N)=O)NC3=O)C(=O)N[C@@H](CO)C(=O)N[C@@H](Cc1c[nH]c3ccccc13)C(=O)N1CCC[C@H]1C(=O)N[C@@H](C(C)C)C(=O)N2,HPLC,ammonium bicarbonate 0.1 M,"180 µM, 7 days, pH 9.0, 37 °C, deamidation stability",,remaining peptide,96.9 ± 0.7%
O=C(Nc1ccccc1)C1CCN(C(=O)Oc2cccnc2)CC1,psychotropic effects VAS,healthy women,20 mg,"baseline: pre-dose baseline, direction not given",change in Meaning score,0.1
[O-][S+]1CCc2nc(N3CCC(c4ncc(Cl)cn4)CC3)nc(NC3(CO)CCC3)c21 (stereo not drawn),refers to: gastrointestinal disorders,healthy male subjects,"dose not given, single rising dose, total",,subjects with adverse event,25%
N.N.[Cl][Pt][Cl],,mouse xenograft model,"dose not given, day 2, group mean",,body weight,24.8 g
CN1CCN(c2ccc(Nc3nccc(-c4cccc(F)c4)n3)cc2C(F)(F)F)CC1,,zebrafish embryos,"25 µM, 5 d",,toxicity,0%
CC(=O)c1c(C)c2cnc(Nc3ccc(C4CCN(CCS(C)(=O)=O)CC4)cn3)nc2n(C2CCCC2)c1=O,,HR+/HER2- advanced breast cancer patients,"oral, dose not given, all grades",,platelet count decreased,27.2%
CC(C)=CC1C(C(=O)OC(C#N)c2cccc(Oc3ccccc3)c2)C1(C)C (stereo not drawn),refers to: CYP2C19,"human, age 6 months",,,enzyme contribution to clearance,0.62%
CCCC1CCC(C2CCC(c3ccc(F)c(F)c3)CC2)CC1 (stereo not drawn),refers to: compound,"human pregnant women, male fetuses, cord serum","dose not given, paired maternal-cord samples, mean",,concentration,0.6 ng/mL
Clc1ccc(-c2cc(Cl)c(Cl)cc2Cl)cc1Cl,,fresh water,"20 °C, S30-2 sampler, 30 µm",,log K(PDMS-water),6.07 ± 0.04
Cn1cncc1-c1c(F)cncc1NC(=O)c1c(N)nn2cc(F)cnc12,,human patients,"oral, 130 mg once daily",,grade ≥3 neutrophil decrease incidence,22%
CO[C@H]1C[C@@H]2CC[C@@H](C)[C@@](O)(O2)C(=O)C(=O)N2CCCC[C@H]2C(=O)O[C@H]([C@H](C)C[C@@H]2CC[C@@H](OC(=O)NCCOCCOCCOCCOCCOCCOCCOCCOCCC(=O)N3CCc4cc(Cn5nc(-c6ccc7oc(N)nc7c6)c6c(N)ncnc65)ccc4C3)[C@H](OC)C2)C[C@@H](O)[C@H](C)/C=C(\C)[C@@H](O)[C@@H](OC)C(=O)[C@H](C)C[C@H](C)/C=C/C=C/C=C/1C,,patients with advanced solid tumours,"intravenous, 8 mg weekly, any grade",,dyspnoea incidence,18.8%
CC(C)CC(=O)OC[C@H]1O[C@@](C#N)(c2ccc3c(N)ncnn23)[C@H](O)[C@@H]1O,,mouse plasma,9 µM,,fraction bound,0.837
O=[Se](=O)([O-])[O-].[Na+].[Na+],,rat,"subcutaneous, 0.04 mg/kg",,apparent clearance (CL/F),0.0025 mL/min/kg
Clc1ccc(-c2cc(Cl)c(Cl)c(Cl)c2Cl)cc1,,PDMS-water partitioning,PCB compilation,baseline: maximum over minimum K,literature range factor,1.1
CN1CCN(c2ccc(Nc3nccc(-c4ccc(Cl)cc4)n3)cc2C(F)(F)F)CC1,,zebrafish embryos,"50 µM, 5 d",,toxicity,0%
C[C@]1(CO)Cc2ncn(-c3ccc(C#N)c(Cl)c3)c2C(=O)O1,,"healthy Japanese adults, plasma","40 mg once daily, dosing interval 24 h",,accumulation ratio of AUC,1
C=CC(=O)N[C@H]1C=C(C)c2c(-c3cnc4ccccc4c3)c3c(N)ncnc3n2C1,refers to: body weight,tumour-bearing mice,all doses tested,,tolerability,not toxic
CCOc1cc(Oc2ccc(C(F)(F)F)cc2Cl)ccc1[N+](=O)[O-],,"rat, male","250 mg/kg, 4 days",,final body weight,91 ± 4.1 g
CCCCCCCCCCCCCCCC(=O)N[C@@H](CCC(=O)NCCCC[C@H](NC(=O)[C@H](CC(=O)O)NC(=O)[C@H](CO)NC(=O)[C@@H](NC(=O)[C@H](Cc1ccccc1)NC(=O)[C@@H](NC(=O)CNC(=O)[C@H](CCC(N)=O)NC(=O)[C@H](CO)NC(=O)[C@@H](N)Cc1c[nH]cn1)[C@@H](C)O)[C@@H](C)O)C(=O)N[C@@H](CO)C(=O)N[C@@H](CCC(=O)O)C(=O)N[C@@H](Cc1ccc(O)cc1)C(=O)N[C@@H](CC(C)C)C(=O)N[C@@H](CC(=O)O)C(=O)N[C@@H](CO)C(=O)N[C@@H](CCC(=O)O)C(=O)N[C@@H](CCCNC(=N)N)C(=O)N[C@@H](C)C(=O)N[C@@H](CCCNC(=N)N)C(=O)N[C@@H](CC(=O)O)C(=O)N[C@@H](Cc1ccccc1)C(=O)N[C@H](C(=O)N[C@@H](C)C(=O)N[C@@H](Cc1c[nH]c2ccccc12)C(=O)N[C@@H](CC(C)C)C(=O)N[C@@H](CCC(=O)O)C(=O)N[C@@H](C)C(=O)NCC(=O)NCC(=O)O)C(C)C)C(=O)O,refers to: Dyspepsia,humans CrCl 45 to 60 mL/min,"subcutaneous, 100 µg single dose",,treatment-related adverse events,0%
COc1ccc2nc3cc(Cl)ccc3c(Nc3cc(CN4CCCC4)c(O)c(CN4CCCC4)c3)c2n1,,"mouse, blood","intraperitoneal, 28 mg/kg",,monocytes,2.7%
C[C@@H](NC(=O)N1C(=O)[C@H](Cc2ccnc(N)c2)[C@H]1C(=O)O)C1CCCCC1,,healthy Chinese adults,"continuous intravenous infusion, 0.3 mg/kg/h, 5.0 days",,decreased WBC,25%
CC(C)C[C@H](NC(=O)[C@H](CCC(N)=O)NC(=O)[C@H](C)NC(=O)[C@H](C)NC(=O)[C@H](CCCNC(=N)N)NC(=O)[C@H](CCCNC(=N)N)NC(=O)[C@H](CCCNC(=N)N)NC(=O)[C@H](CC(C)C)NC(=O)[C@H](Cc1c[nH]cn1)NC(=O)[C@@H](NC(=O)[C@H](CCCCN)NC(=O)[C@H](CCCNC(=N)N)NC(=O)[C@H](CCCNC(=N)N)NC(=O)[C@H](CCCNC(=N)N)NC(=O)[C@H](CCC(N)=O)NC(=O)[C@H](CCCNC(=N)N)NC(=O)[C@H](CCCNC(=N)N)NC(=O)[C@H](CCCCN)NC(=O)[C@H](CCCCN)NC(=O)[C@H](CCCNC(=N)N)NC(=O)CNC(=O)[C@@H](N)Cc1ccc(O)cc1)[C@@H](C)O)C(=O)N[C@@H](CCCCN)C(N)=O,open field test,rat,"intra-CA1 bilateral, dose not given, 5 min",,centre time,no effect
CCN(CCO)CCCC(C)Nc1ccnc2cc(Cl)ccc12 (stereo not drawn),,newly diagnosed glioblastoma patients,"oral, 800 mg/dose, grade 2, added: radiotherapy and temozolomide",,nausea patients,33%
CC/C(=C(\c1ccccc1)c1ccc(OCCN(C)C)cc1)c1ccccc1,,"CD-1 mouse, male, lung","intraperitoneal, 3 mg/kg",,Tmax,2 h
CN1CC[C@@H](c2c(O)cc(O)c3c(=O)cc(-c4ccc(C(F)(F)F)cc4Cl)oc23)[C@@H]1CO,refers to: grade 3 rectal abscess,relapsed or refractory haematologic malignancy patients,"oral, dose not given, phase dose escalation, all doses",,patients with adverse event,5%
c1ccc2cc3c(cc2c1)-c1cccc2cccc-3c12,,polyethylene-water partitioning,PAH compilation,,literature range of log K,6.05 to 6.66 log units
N=C(N)NCCC[C@@H](NC(=O)[C@@H](N)Cc1ccccc1)C(=O)N[C@@H](Cc1ccccc1)C(=O)N[C@@H](CCCCN)C(N)=O,LC-MS,human,"15 mg, 5.833 h",,median amount excreted in urine,5.25e+06 ng
O=S(=O)(Nc1ccccc1)c1ccc(NC(=S)Nc2ccccc2)cc1,refers to: TBIL,"female mouse, blood","oral, 80 mg/kg daily, 14 days",,blood chemistry level,0.85 mg/dL
CCc1ccc(CC/C=C/c2ccc3c(c2)C(=O)CC3)cc1,,"Sprague-Dawley rat, female","oral, 450 mg/kg/day, 14 days",,Glucose,6.58 mM
C[C@@H]1NC(=O)[C@H](CCCCNC(=O)CO/N=C/C(=O)NCCCC[C@@H]2NC(=O)[C@@H](Cc3ccccc3)NC(=O)[C@H](CC(=O)O)NC(=O)CNC(=O)[C@H](CCCNC(=N)N)NC2=O)NC(=O)CNC(=O)[C@@H]2CCCN2C(=O)[C@H](CCCCNC(=O)CO/N=C/C(=O)NCCCC[C@@H]2NC(=O)[C@@H](Cc3ccccc3)NC(=O)[C@H](CC(=O)O)NC(=O)CNC(=O)[C@H](CCCNC(=N)N)NC2=O)NC(=O)[C@H](CCCCNC(=O)CCNC(=O)CCNC(=O)CCNC(=O)[C@H](CCCCN)NC(=O)[C@H](Cc2ccccc2)NC(=O)CNC(=O)CN2CCCNCCNCCCNCC2)NC(=O)[C@H](CCCCNC(=O)CO/N=C/C(=O)NCCCC[C@@H]2NC(=O)[C@@H](Cc3ccccc3)NC(=O)[C@H](CC(=O)O)NC(=O)CNC(=O)[C@H](CCCNC(=N)N)NC2=O)NC(=O)CNC(=O)[C@@H]2CCCN2C(=O)[C@H](CCCCNC(=O)CO/N=C/C(=O)NCCCC[C@@H]2NC(=O)[C@@H](Cc3ccccc3)NC(=O)[C@H](CC(=O)O)NC(=O)CNC(=O)[C@H](CCCNC(=N)N)NC2=O)NC1=O [copper-64 labelled],,"normal mice, stomach","intravenous, 0.74 MBq, 24 h post-injection",,tissue uptake,0.7 ± 0.12 %ID/g
Clc1ccc(-c2cc(Cl)c(Cl)c(Cl)c2Cl)cc1Cl,,fresh water,"20 °C, S30-1 sampler, 30 µm",,log K(PDMS-water),6.37 ± 0.06
CC1=C(O)C(=O)C=C2C1=CC=C1[C@@]2(C)CC[C@@]2(C)[C@@H]3C[C@](C)(C(=O)O)CC[C@]3(C)CC[C@]12C,,"Sprague-Dawley rat pups, multiple-hit infantile spasms model","i.p., 4 mg/kg, PN5, CELA-4 arm",baseline: vehicle,body weight decrease,1.69 g
C1=Cc2cccc3cccc1c23,,"developing zebrafish, liver",,,hepatic clearance,183 mL/min/kg
COc1cccc2c1CCCC2CCCN1CCN(C2CCCCC2)CC1 (stereo not drawn),,"CD-1 mouse, male, plasma","intraperitoneal, 30 mg/kg",,Tmax,0.0833 h
CC(C)C[C@@H]1NC(=O)CNC(=O)[C@H](CC(N)=O)NC(=O)[C@H](CCCNC(=N)N)NC(=O)[C@H]([C@@H](C)O)NC(=O)[C@@H]2CSSC[C@@H]3NC(=O)[C@H]([C@@H](C)O)NC(=O)CNC(=O)CNC(=O)[C@H](C(C)C)NC(=O)[C@@H]4CSSC[C@H](NC(=O)[C@H](CCCCN)NC(=O)[C@H](CSSC[C@H](NC(=O)[C@H](C(C)C)NC(=O)[C@@H]5CCCN5C1=O)C(=O)NCC(=O)N[C@@H](CCC(=O)O)C(=O)N[C@@H]([C@@H](C)O)C(=O)N4)NC(=O)CNC(=O)[C@@H]1CCCN1C(=O)[C@H]([C@@H](C)O)NC(=O)[C@H](CC(N)=O)NC3=O)C(=O)N[C@@H](CO)C(=O)N[C@@H](Cc1c[nH]c3ccccc13)C(=O)N1CCC[C@H]1C(=O)N[C@@H](C(C)C)C(=O)N2,HPLC,ammonium bicarbonate 0.1 M,"180 µM, 7 days, pH 9.0, 37 °C, deamidation stability",,remaining peptide,79.5 ± 0.6%

# A few entries again:
Compound,assay,test system,setting,scale,quantity,value
COc1cc2c(Oc3ccc4[nH]c(C)cc4c3F)ccnc2cc1OCC1(N)CC1,,paediatric recurrent refractory sarcoma,10 mg,,Headache incidence,25%
Clc1ccc(-c2cc(Cl)c(Cl)c(Cl)c2Cl)cc1Cl,,fresh water,"20 °C, S30-1 sampler, 30 µm",,log K(PDMS-water),6.37 ± 0.06
C1=Cc2cccc3cccc1c23,,"developing zebrafish, liver",,,hepatic clearance,183 mL/min/kg
